# Measured values pooled from the literature.
# Numbered parts are unrelated; each lists some results of a single study.
# UniProt P29597, sequence (whole entry, looked up): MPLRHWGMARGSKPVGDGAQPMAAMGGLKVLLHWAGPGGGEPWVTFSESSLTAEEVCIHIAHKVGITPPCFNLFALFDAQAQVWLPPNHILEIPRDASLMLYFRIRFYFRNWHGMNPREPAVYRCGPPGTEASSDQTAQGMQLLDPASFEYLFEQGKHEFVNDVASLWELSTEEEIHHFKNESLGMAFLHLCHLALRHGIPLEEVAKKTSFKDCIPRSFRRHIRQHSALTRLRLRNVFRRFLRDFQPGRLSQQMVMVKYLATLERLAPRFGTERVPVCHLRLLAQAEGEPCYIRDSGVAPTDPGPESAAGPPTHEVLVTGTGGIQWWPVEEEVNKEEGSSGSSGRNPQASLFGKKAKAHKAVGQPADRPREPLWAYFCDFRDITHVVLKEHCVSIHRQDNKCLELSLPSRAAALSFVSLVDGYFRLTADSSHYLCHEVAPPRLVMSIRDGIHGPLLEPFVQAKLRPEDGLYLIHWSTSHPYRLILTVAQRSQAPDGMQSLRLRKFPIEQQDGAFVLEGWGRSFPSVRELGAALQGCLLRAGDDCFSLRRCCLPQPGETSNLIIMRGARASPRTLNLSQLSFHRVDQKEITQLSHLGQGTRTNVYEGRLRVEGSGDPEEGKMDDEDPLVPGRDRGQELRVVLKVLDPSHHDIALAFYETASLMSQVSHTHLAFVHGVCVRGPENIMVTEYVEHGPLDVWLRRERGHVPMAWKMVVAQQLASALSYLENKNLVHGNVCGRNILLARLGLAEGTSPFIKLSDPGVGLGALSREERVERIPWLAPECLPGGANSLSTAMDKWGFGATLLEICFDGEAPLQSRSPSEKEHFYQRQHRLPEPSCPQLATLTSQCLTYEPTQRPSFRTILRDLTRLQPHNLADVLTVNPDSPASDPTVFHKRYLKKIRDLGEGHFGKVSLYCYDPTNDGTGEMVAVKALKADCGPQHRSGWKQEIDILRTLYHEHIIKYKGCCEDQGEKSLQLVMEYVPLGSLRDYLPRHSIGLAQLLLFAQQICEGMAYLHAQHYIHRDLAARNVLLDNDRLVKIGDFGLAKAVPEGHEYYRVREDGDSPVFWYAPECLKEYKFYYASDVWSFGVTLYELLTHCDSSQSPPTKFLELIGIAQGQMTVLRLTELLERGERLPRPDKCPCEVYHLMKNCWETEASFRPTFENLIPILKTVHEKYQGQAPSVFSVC
# UniProt Q86UX6, sequence (whole entry, looked up): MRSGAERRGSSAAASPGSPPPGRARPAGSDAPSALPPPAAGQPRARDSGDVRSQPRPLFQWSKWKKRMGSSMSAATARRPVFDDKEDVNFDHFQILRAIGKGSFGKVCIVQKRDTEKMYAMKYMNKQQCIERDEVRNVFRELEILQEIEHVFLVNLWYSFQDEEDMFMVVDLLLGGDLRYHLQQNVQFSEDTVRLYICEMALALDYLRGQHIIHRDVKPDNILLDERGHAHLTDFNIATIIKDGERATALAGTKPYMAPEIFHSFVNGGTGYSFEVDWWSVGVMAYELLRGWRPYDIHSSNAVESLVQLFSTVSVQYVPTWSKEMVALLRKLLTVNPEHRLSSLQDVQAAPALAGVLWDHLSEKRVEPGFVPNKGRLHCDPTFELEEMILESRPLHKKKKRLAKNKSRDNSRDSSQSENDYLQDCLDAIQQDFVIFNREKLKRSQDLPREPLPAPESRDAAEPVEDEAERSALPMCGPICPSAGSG
# UniProt P08631, sequence (whole entry, looked up): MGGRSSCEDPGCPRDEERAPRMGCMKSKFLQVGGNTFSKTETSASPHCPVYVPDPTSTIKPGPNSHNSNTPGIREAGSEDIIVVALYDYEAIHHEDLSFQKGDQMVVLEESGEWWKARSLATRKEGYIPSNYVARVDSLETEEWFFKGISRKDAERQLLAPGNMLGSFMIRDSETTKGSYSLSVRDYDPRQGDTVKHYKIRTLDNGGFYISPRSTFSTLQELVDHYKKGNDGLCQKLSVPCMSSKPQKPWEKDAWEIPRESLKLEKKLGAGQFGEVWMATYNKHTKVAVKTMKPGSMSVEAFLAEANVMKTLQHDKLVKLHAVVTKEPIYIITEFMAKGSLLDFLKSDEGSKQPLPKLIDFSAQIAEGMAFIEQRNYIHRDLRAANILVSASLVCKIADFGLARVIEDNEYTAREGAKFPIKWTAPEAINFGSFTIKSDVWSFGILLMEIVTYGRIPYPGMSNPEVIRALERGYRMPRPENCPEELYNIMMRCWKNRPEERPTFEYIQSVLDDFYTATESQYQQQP
# UniProt Q9UQ88, sequence (whole entry, looked up): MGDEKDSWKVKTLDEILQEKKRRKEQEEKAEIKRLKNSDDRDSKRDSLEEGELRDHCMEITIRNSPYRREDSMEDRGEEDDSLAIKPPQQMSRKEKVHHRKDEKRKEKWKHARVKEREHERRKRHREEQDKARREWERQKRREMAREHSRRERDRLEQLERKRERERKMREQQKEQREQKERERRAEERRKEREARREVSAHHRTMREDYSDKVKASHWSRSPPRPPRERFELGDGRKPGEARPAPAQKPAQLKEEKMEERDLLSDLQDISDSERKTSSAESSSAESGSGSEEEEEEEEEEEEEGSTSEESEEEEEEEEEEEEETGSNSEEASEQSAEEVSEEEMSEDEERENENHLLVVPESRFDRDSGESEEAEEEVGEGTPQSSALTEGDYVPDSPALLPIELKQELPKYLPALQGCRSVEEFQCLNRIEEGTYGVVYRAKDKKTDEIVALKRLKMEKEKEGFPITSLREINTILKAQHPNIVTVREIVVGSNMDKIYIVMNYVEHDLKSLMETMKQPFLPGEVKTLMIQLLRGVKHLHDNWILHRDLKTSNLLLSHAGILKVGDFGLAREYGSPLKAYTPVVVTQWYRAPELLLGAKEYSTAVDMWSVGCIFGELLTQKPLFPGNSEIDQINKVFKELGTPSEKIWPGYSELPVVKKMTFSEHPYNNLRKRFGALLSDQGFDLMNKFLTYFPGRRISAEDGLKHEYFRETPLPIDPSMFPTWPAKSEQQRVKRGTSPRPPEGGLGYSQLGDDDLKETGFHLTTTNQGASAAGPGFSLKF
# UniProt Q14004, sequence (whole entry, looked up): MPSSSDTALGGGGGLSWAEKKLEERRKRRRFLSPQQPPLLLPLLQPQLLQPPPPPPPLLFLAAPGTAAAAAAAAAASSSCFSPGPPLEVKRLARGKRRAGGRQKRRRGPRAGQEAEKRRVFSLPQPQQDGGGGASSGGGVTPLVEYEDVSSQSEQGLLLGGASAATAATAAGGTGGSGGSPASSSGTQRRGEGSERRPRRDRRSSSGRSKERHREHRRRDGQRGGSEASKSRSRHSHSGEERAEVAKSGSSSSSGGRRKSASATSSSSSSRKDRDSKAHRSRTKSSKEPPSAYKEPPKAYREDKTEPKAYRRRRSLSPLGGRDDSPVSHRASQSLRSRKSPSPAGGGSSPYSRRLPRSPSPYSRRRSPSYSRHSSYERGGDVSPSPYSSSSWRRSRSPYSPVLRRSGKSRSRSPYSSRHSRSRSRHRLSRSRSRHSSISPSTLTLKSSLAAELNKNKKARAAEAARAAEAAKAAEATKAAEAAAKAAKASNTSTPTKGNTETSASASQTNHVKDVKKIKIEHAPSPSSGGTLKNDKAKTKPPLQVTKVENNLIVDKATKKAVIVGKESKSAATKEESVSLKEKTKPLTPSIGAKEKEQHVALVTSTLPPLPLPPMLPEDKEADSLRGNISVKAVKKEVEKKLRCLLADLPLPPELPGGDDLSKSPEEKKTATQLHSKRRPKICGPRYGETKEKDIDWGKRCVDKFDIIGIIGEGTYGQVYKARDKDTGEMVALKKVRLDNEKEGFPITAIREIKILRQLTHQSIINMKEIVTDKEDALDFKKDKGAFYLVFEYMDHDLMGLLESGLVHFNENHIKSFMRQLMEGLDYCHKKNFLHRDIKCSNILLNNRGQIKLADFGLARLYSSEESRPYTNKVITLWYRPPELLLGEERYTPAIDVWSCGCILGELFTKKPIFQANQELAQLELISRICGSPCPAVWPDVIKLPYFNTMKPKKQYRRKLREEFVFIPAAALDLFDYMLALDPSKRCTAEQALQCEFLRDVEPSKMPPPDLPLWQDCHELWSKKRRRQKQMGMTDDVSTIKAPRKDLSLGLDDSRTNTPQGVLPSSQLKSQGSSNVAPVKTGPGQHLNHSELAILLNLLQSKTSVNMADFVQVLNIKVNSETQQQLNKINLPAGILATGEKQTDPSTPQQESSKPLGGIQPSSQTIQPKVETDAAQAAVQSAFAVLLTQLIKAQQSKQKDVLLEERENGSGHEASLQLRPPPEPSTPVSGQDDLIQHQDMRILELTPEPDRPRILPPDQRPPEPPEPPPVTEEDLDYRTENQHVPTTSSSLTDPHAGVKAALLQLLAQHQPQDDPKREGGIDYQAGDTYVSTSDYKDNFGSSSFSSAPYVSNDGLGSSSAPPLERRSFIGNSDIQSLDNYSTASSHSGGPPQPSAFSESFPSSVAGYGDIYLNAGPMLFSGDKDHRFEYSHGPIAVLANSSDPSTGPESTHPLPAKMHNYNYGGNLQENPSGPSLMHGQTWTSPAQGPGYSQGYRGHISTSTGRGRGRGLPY

# Sample 1 — technique: protein-binding microarray; molecule type: double-stranded DNA, one strand shown; medium: in vitro; tested at: 250 nM; notes: 60-bp whole probe; added: salmon DNA 0.4 mg/ml; relative to: random background probes; reading: higher = stronger binding; constant ends, left off below: GCCTAGCAC … GTCTTGATTCGCTTGACGCTGCTG
# Target: Interferon regulatory factor 5, full length, phosphomimetic (IRF5, Homo sapiens, UniProt Q13568-2, residues 1-514, K96S/S451D/S453D/S456D/S462D)
Strand,log fluorescence [z-score]
TCATTGGTTGAACATGAACTGTGCTAG,0.173
GACGAACTGGGGTTTCGAGCCGTGCTA,0.363
TTAGGTATCGGGTTTCGTTTAGTGCTA,6.29
TTAGGACTGCTTATCCTTTTGTGCTAG,-0.0631
TTAGTTTTCGGGTATCGATTAGTGCTA,8.5
TTAGGTCTCCAACTGCTTTAGTGCTAG,-0.503
TTAGGATTCCTTTTCCTTTAGTGCTAG,0.643
TTAGGAGTGCTACTGCTTTAGTGCTAG,-0.587

# Sample 2 — SMILES: FC(F)(F)c1ccc2c(c1)nc(-c1cccnc1)n2C1CC1; tested at: 1 µM
target,test,remaining binding [%]
"HCK (Homo sapiens, UniProt P08631)","cell-free assay, competition with immobilised ligand",100
"SRPK1 (Homo sapiens, UniProt Q96SB4)","cell-free assay, competition with immobilised ligand",80
"Non-receptor tyrosine-protein kinase TYK2, JH1 (TYK2, Homo sapiens, UniProt P29597)","cell-free assay, competition with immobilised ligand",100
"MYLK2 (Homo sapiens, UniProt Q9H1R3)","cell-free assay, competition with immobilised ligand",100
"CDK13 (Homo sapiens, UniProt Q14004)","cell-free assay, competition with immobilised ligand",100
"STK32C (Homo sapiens, UniProt Q86UX6)","cell-free assay, competition with immobilised ligand",100
"AAK1 (Homo sapiens, UniProt Q2M2I8)",binding,100
"SBK1 (Homo sapiens, UniProt Q52WX2)","cell-free assay, competition with immobilised ligand",100
"EGFR (Homo sapiens, UniProt P00533, L858R)","cell-free assay, competition with immobilised ligand",91
"Tyrosine-protein kinase ABL1, non-phosphorylated (ABL1, Homo sapiens, UniProt P00519, F317L)","cell-free assay, competition with immobilised ligand",100
"CDK11A (Homo sapiens, UniProt Q9UQ88)","cell-free assay, competition with immobilised ligand",100

# Sample 3 — technique: aptamer microarray, sandwich; molecule type: DNA with 2'F-ANA; medium: in vitro; tested at: 200 nM; added: Cy3 exosite-II aptamer, 400 nM; reading: higher = stronger binding; strand: GGTTGGTGTGGTTGG
# Target: Prothrombin, mature alpha-thrombin (F2, Homo sapiens, UniProt P00734)
# Notes: whole 15-mer aptamer, many near background
Modification,mean fluorescence intensity
2'F-ANA at 1 2 5 7 9 10 12 13 14 15,54.5 a.u.
2'F-ANA at 4 6 7 9 10 11 12 13 14 15,56.9 a.u.
2'F-ANA at 3 4 5 7 8 11 15,85 a.u.
2'F-ANA at 3 4 6 7 9 11 12 14 15,273 a.u.
2'F-ANA at 1 3 5 7 8 10 13 14 15,45.9 a.u.
2'F-ANA at 2 4 5 13 14,42.6 a.u.
2'F-ANA at 1 3 6 7 12 13,393 a.u.
2'F-ANA at 3 4 5 7 8 10 11 12 13 14,48.3 a.u.

# Sample 4 — observed: enzyme activity; action: inhibitor; tested at: 0.5 µM; relative to: control
# Target: Serine/threonine-protein kinase 24 (STK24, Homo sapiens, UniProt Q9Y6E0)
# UniProt Q9Y6E0, sequence (whole entry, looked up): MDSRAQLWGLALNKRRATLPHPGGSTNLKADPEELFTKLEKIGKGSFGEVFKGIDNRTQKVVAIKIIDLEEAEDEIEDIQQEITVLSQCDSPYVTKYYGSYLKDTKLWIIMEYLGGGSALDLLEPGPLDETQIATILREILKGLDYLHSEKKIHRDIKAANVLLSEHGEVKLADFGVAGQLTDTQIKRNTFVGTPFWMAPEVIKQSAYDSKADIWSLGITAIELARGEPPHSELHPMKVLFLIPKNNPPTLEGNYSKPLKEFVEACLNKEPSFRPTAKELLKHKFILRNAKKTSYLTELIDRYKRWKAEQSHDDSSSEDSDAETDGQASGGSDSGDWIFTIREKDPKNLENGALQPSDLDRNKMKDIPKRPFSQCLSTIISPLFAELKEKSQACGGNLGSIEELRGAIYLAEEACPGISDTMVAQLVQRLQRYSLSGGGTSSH
SMILES,remaining activity
COc1ccc(C(=O)Nc2sc3c(c2C(N)=O)CCCC3)cc1OC,93.9%
CC(C)[C@H](CO)Nc1nc(Nc2cc(N)cc(Cl)c2)c2ncn(C(C)C)c2n1,75.9%
Cc1ccc(Nc2nccc(N(C)c3ccc4c(C)n(C)nc4c3)n2)cc1S(N)(=O)=O,106%
N#CC(C#N)=C(N)/C(C#N)=C/c1ccc(O)cc1,103%
CN(C)c1ccc(C=C2C(=O)Nc3ccccc32)cc1,96.7%
Nc1[nH]nc2nc3ccccc3nc12,89.1%
O=c1c2ccccc2[nH]c(=S)n1CCN1CCC(=C(c2ccc(F)cc2)c2ccc(F)cc2)CC1,93.4%
COc1cc2ncnc(Nc3ccc(Oc4ccccc4)cc3)c2cc1OC,91.6%
CCOC(=O)c1c(C)[nH]c(/C=C2\C(=O)Nc3ccccc32)c1C,82.5%
Cc1ccc(NC(=O)c2ccc(CN3CCN(C)CC3)cc2)cc1Nc1nc(-c2cccnc2)cs1,104%
Cc1cccc(-c2[nH]c(C(C)(C)C)nc2-c2ccc3c(c2)OCO3)n1,100%
CNC(=O)c1cc(Oc2ccc(NC(=O)Nc3ccc(Cl)c(C(F)(F)F)c3)cc2)ccn1,110%
COc1ccc(CNC(=O)Nc2ncc([N+](=O)[O-])s2)cc1,93.6%
Nc1ccc2ncnc(NCCc3ccc(Oc4ccccc4)cc3)c2c1,107%

# Some of these lines once more (sample 3):
Modification,mean fluorescence intensity
2'F-ANA at 3 4 5 7 8 11 15,85 a.u.
2'F-ANA at 3 4 6 7 9 11 12 14 15,273 a.u.
2'F-ANA at 1 3 5 7 8 10 13 14 15,45.9 a.u.
2'F-ANA at 2 4 5 13 14,42.6 a.u.
2'F-ANA at 1 3 6 7 12 13,393 a.u.
2'F-ANA at 3 4 5 7 8 10 11 12 13 14,48.3 a.u.
